Results pooled from the literature.
Each numbered part is a random draw from the data of one study; scales do not carry over between parts. Positions count from the first letter of the parent shown.

Sample 1 — target: CCNA2, cyclin fold, Cln2 fusion (human); method: yeast growth competition, sequencing; matrix: yeast; notes: strong parent motif; baseline: not given; direction: higher = stronger binding
Starting sequence: RBL2 docking peptide (human); STTRRRLFVENDS
`S13G` — result for “normalised enrichment score”: 5.71.
Under “normalised enrichment score”, `T2V` is recorded as 5.52.
Under “normalised enrichment score”, `E10F` is recorded as 4.49.
For `N11D`, “normalised enrichment score” read 6.52.
`S1Q` — result for “normalised enrichment score”: 5.44.
`N11Y` — result for “normalised enrichment score”: 6.59.
`V9N`: “normalised enrichment score” 6.63.
`D12G`: “normalised enrichment score” 5.66.

Sample 2 — method: protein-binding microarray; molecule type: double-stranded DNA, one strand shown; matrix: in vitro; concentration: 0.8 µM; notes: whole 60-bp probe, no competitor; direction: higher = stronger binding; shared flanks, not repeated: … GTCTTGATTCGCTTGACGCTGCTG
Target: Centromere-binding protein 1, full length, N-terminal tag (CBF1, Saccharomyces cerevisiae, UniProt P17106, residues 1-351)
Chain of UniProt P17106 (whole entry, looked up): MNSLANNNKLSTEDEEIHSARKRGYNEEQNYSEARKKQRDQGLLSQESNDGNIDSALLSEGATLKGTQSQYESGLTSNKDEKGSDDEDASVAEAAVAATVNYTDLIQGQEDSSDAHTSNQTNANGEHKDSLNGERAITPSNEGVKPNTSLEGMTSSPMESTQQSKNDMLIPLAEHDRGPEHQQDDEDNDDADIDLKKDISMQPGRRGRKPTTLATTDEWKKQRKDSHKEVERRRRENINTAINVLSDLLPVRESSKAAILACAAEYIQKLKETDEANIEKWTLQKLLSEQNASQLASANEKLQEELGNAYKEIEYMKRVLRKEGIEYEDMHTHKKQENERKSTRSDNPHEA
`GAATGTCACTCATGTTTCGTGATAAAAGAAATATAG` gave a fluorescence intensity of 623 a.u.
`GAAATGTAAAGCGCGCACGTAGTAAGTGACGAGTAG` gave a fluorescence intensity of 550 a.u.
`CTAAGGATTTTTTAAATCGTGACATGTGCTTTATTC` gave a fluorescence intensity of 2100 a.u.
`GAATTTCAGGCTTTGAACGTGATTTTCCCAAACTAG` gave a fluorescence intensity of 726 a.u.
`GAAACAATTATTAGCCATCAGTACTTCTCTTTTTAG` has a fluorescence intensity of 484 a.u.
For `GAAGATATGAAACTACACGTTCAGTCATATGAATAG`, the fluorescence intensity was 581 a.u.
For `GAAGGTAAAAAAAGTGATGTCAGACCAAAGTGCTAG`, the fluorescence intensity was 533 a.u.
`CCTAACTACTATAGTGGTGATCCATAGCTTCGTACA` has a fluorescence intensity of 546 a.u.

Sample 3 — method: protein-binding microarray; molecule type: double-stranded DNA, one strand shown; matrix: in vitro; concentration: 2540 nM top; notes: 60-bp whole probe; with: salmon DNA 0.4 mg/ml; baseline: random background probes; direction: higher = stronger binding; shared flanks, not repeated: GCCTAGCAC … GTCTTGATTCGCTTGACGCTGCTG
Target: Interferon regulatory factor 3, full length, phosphomimetic (IRF3, Homo sapiens, UniProt Q14653, residues 1-427, S386D/S396D/S398D/S402D/T404D/S405D)
Chain of UniProt Q14653 (whole entry, unmodified, looked up): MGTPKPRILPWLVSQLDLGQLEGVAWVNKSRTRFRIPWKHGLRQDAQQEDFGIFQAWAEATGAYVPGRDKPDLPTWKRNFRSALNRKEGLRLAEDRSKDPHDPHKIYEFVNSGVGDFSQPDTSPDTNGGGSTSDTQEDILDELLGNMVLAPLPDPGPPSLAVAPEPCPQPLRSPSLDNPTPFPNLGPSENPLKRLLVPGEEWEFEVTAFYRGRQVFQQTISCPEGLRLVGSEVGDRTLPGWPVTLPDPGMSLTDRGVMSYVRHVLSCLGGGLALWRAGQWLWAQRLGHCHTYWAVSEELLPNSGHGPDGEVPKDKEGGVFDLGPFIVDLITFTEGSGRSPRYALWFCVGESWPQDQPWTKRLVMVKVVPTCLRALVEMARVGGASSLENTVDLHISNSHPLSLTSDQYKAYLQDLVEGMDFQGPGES
For `TTAGGTTTCGGGATTCGGTTAGTGCTA`, “fitted relative affinity” read 4.6 z-score.
For `TTAGGTATCGATATCGGTTAGTGCTAG`, “fitted relative affinity” read 2.66 z-score.
`TCATATTTGTTTCCATTACTGTGCTAG` — result for “fitted relative affinity”: 4.53 z-score.
`TTCGGTCTCCTTATCCTTTAGTGCTAG`: “fitted relative affinity” 3.62 z-score.
For `AGAGCTCTGGCACCTCTAGACGTGCTA`, “fitted relative affinity” read -1.04 z-score.
`TTAGGTTTCCTGTTCCTTTAGTGCTAG`: “fitted relative affinity” 4.43 z-score.
`GACTATATCGGGACTGGAGACGTGCTA` — result for “fitted relative affinity”: 0.163 z-score.
Under “fitted relative affinity”, `TTAGCACTGCTTCTCCTTTAGTGCTAG` is recorded as -0.248 z-score.
`GTAGGTCTCGGTATCGGTTAGTGCTAG`: “fitted relative affinity” 2.62 z-score.
`GACGGTTGCGACTTTCGGGACGTGCTA` — result for “fitted relative affinity”: 1.25 z-score.

Mixed results
`PhoQ, residues 284 288 289 292 302 303 TVTVVA` gave a fold induction of 3.09 (PhoP, residues 12 14 15 18 19 NHFIF (Escherichia coli, UniProt P23836); Sort-seq, refers to: YFP reporter; E. coli; PhoQ-PhoP variant library, with: 10 µM Mg2+; baseline: high Mg2+ state, higher = stronger signaling).

Some of these lines once more (sample 3):
`GACTATATCGGGACTGGAGACGTGCTA` — result for “fitted relative affinity”: 0.163 z-score.
Under “fitted relative affinity”, `TTAGCACTGCTTCTCCTTTAGTGCTAG` is recorded as -0.248 z-score.
`GTAGGTCTCGGTATCGGTTAGTGCTAG`: “fitted relative affinity” 2.62 z-score.
